Assay results of several laboratories.
Compare with care: the assays were run in different laboratories. ± gives the spread as reported.

COc1cc2c3cc(OC)c(OC)cc3c3c[n+]4c(cc3c2cc1OC)CCC4  CC50 (swine cells; 24 (unit not given)): > 100 µM
CC[C@H](C)[C@H](NC(=O)CNC(=O)[C@H](C)NC(=O)[C@@H](NC(=O)CNC(=O)[C@H](CCCNC(=N)N)NC(=O)[C@@H](NC(=O)[C@H](CCCNC(=N)N)NC(=O)[C@H](CCC(=O)O)NC(=O)CNC(=O)[C@H](CCCNC(=N)N)NC(=O)[C@H](CCCCN)NC(=O)[C@H](C)NC(=O)[C@H](Cc1c[nH]cn1)NC(=O)CNC(=O)[C@H](CCCCN)NC(=O)[C@H](CCCNC(=N)N)NC(=O)[C@H](C)NC(=O)[C@H](Cc1ccc(O)cc1)NC(=O)[C@H](C)NC(=O)[C@H](CC(C)C)NC(=O)[C@H](CC(C)C)NC(=O)CN)C(C)C)[C@@H](C)O)C(=O)N[C@@H](CCCNC(=N)N)C(=O)N[C@@H](Cc1ccccc1)C(=O)N[C@@H](CC(C)C)C(=O)N[C@@H](Cc1ccc(O)cc1)C(=O)N[C@@H](C)C(=O)N[C@@H](C)C(=O)N1CCC[C@H]1C(=O)N[C@@H](CCCNC(=N)N)C(=O)N[C@@H](CCCNC(=N)N)C(=O)O  onset of degradation (100% human serum; 27 µM, 37 °C, heat-inactivated serum): 2 min
CN(C)C(CNC(=O)Nc1cc(C(F)(F)F)ccc1N1CCOCC1)c1ccncc1 (centres unmarked)  phosphorus (mouse, serum; intraperitoneal, 120 mg/kg single dose): 7.6 mg/dL
CCCC[C@H]1C(=O)N(C)[C@@H](CCCC)C(=O)N[C@@H](CCCNC(=O)CN2CCN(CC(=O)O)CCN(CC(=O)O)CCN(CC(=O)O)CC2)C(=O)N[C@H](C(=O)NCC(N)=O)CSCC(=O)N[C@@H](Cc2ccc(O)cc2)C(=O)N(C)[C@@H](C)C(=O)N[C@@H](CC(N)=O)C(=O)N2CCC[C@H]2C(=O)N[C@@H](Cc2c[nH]cn2)C(=O)N[C@@H](CC(C)C)C(=O)N(C)CC(=O)N[C@@H](Cc2c[nH]c3ccccc23)C(=O)N[C@@H](CO)C(=O)N[C@@H](Cc2c[nH]c3ccccc23)C(=O)N1C [gallium-68 labelled]  tumour uptake (biodistribution; NOD/SCID mice, CHO-hPD-L1 xenograft, CHO-hPD-L1 tumour; 60 min post injection): 20.1 ± 2.6 %ID/g
CC[C@H](C)[C@H](NC(=O)[C@H](CCCN)NC(=O)[C@H](CC(N)=O)NC(=O)[C@H](Cc1c[nH]c2ccccc12)NC(=O)[C@H](Cc1ccccc1)NC(=O)[C@H](CCCN)NC(=O)[C@H](CCCCNC(=N)N)NC(=O)[C@H](CC(C)C)NC(=O)[C@H](Cc1c[nH]c2ccccc12)NC(=O)[C@H](CCCN)NC(=O)[C@H](CCCCNC(=N)N)NC(=O)[C@H](CC(C)C)NC(=O)CNC(C)=O)C(=O)N[C@@H](CCCN)C(=O)N[C@@H](CCCCNC(=N)N)C(N)=O  serum biochemistry and haematology (measured: ALT, AST, LDH, creatinine, BUN; Kunming mice; intravenous, 10 mg/kg, day 10; baseline: control): no effect
O=C(c1ccc(F)cc1)C1CCN(C2Cc3c(cccc3OCC[18F])CC2O)CC1 (single isomer, unassigned; (-))  tracer uptake (rat, brain; 2 h): 0.56 %ID/g
CCCCCCCCCCCCC(=O)O.O=C1CCCC2C3CCCN4CCCC(CN12)C34 (centres unmarked)  critical aggregation concentration (water; concentration not given, 313.15 K): 0.001 mol/kg
COc1cc(NC(=O)C(=O)c2c(C)n(Cc3ccc(Cl)cc3)c3ccc(C)cc23)ccn1  bioavailability (male cynomolgus monkey, plasma; oral, 10 mg/kg): 14.3%
CC(C)[C@@H]1NC(=O)[C@H](Cc2ccccc2)NC(=O)[C@H](Cc2ccc(O)cc2)NC(=O)CCSSC[C@@H](C(=O)N2CCC[C@H]2C(=O)N[C@H](CCCNC(=N)N)C(=O)NCC(N)=O)NC(=O)[C@H](CCC(N)=O)NC1=O  ALT (Wistar rat, blood; intravenous, 100 µg/kg single dose, 72 h): 20.4 ± 3.1 IU/L
O=c1cc(-c2ccccc2)oc2c(Br)c(O)c(O)c(O)c12  Vz (C57BL/6 mouse, plasma; po, 50 mg/kg): 7100 ± 3030 mL
C/C(=N\OCCCN1CCCCC1)c1ccc(C(F)(F)F)cc1  Vd (mouse, plasma; intravenous, 5 mg/kg): 42.2 L/kg
